Measured values gathered from unrelated publications.
Parts stem from different laboratories: compare values within a part only.

Series 1
Target: Transcriptional repressor CTCF (CTCF, Homo sapiens, UniProt P49711, residues 1-727, full length assumed)
UniProt P49711, sequence (whole entry, looked up): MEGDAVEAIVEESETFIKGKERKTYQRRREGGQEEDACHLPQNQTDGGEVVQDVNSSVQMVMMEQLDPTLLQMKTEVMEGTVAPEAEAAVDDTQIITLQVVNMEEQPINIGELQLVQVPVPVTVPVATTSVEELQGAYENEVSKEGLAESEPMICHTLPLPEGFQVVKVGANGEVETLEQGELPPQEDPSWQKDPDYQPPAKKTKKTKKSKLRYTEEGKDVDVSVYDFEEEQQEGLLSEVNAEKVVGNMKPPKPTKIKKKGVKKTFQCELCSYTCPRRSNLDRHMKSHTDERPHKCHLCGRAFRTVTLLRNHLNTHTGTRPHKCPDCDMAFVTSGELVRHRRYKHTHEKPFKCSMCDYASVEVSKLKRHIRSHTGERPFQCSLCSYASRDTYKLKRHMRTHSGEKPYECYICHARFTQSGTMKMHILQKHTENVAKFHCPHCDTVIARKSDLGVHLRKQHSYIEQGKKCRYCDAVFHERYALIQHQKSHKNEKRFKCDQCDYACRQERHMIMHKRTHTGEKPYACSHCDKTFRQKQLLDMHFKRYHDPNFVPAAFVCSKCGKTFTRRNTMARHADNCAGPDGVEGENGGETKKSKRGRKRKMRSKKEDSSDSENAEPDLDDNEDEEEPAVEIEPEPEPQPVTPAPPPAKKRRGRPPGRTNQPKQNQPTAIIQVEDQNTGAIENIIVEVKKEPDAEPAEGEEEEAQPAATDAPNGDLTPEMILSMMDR
Method: protein-binding microarray
Molecule type: double-stranded DNA, one strand shown
Sample: in vitro
Concentration: not given
Setting: k-mer, scored over probes, only values ≥0.25
Direction: higher = stronger binding
| Oligonucleotide | E-score |
| --- | --- |
| AAATATAT | 0.385 |
| ATAATTGA | 0.28 |
| CAGGGGGC | 0.317 |
| CAATTATA | 0.285 |
| CGCCCCCC | 0.282 |

Series 2
Target: Interferon regulatory factor 3, full length, phosphomimetic (IRF3, Homo sapiens, UniProt Q14653, residues 1-427, S386D/S396D/S398D/S402D/T404D/S405D)
Method: protein-binding microarray
Molecule type: double-stranded DNA, one strand shown
Sample: in vitro
Concentration: 2540 nM top
Setting: 60-bp whole probe
Added: salmon DNA 0.4 mg/ml
Reference: random background probes
Direction: higher = stronger binding
Construct (chain): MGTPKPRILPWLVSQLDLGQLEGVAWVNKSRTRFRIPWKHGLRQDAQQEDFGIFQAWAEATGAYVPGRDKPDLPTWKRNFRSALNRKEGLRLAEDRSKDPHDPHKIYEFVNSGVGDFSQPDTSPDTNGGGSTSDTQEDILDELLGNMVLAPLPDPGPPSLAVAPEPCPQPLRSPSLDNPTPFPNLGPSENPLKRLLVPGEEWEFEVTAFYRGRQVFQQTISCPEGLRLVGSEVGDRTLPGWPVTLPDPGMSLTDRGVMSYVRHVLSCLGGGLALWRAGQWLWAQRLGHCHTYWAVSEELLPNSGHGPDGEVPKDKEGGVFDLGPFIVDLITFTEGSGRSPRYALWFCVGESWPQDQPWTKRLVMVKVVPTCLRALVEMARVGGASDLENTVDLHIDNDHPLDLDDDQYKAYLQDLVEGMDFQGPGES
| Oligonucleotide | fitted relative affinity [z-score] |
| --- | --- |
| GCCTAGCACTTAGGTCTCCTTTTCCTTAAGTGCTAGGTCTTGATTCGCTTGACGCTGCTG | 5.41 |
| GCCTAGCACCTCCCTTTCTCTCTGTGACAGTGCTAGGTCTTGATTCGCTTGACGCTGCTG | 3.37 |
| GCCTAGCACTTAGGTATCGGGTATCGATTAGTGCTAGTCTTGATTCGCTTGACGCTGCTG | 1.69 |
| GCCTAGCACGACGGTTTCCGGACTGGGGACGTGCTAGTCTTGATTCGCTTGACGCTGCTG | 4.1 |

Series 3
Target: RING finger protein unkempt homolog, zinc fingers 1-6, GST-SBP tag (UNK, Homo sapiens, UniProt Q9C0B0, residues 30-357)
UniProt Q9C0B0, sequence (30-357, looked up): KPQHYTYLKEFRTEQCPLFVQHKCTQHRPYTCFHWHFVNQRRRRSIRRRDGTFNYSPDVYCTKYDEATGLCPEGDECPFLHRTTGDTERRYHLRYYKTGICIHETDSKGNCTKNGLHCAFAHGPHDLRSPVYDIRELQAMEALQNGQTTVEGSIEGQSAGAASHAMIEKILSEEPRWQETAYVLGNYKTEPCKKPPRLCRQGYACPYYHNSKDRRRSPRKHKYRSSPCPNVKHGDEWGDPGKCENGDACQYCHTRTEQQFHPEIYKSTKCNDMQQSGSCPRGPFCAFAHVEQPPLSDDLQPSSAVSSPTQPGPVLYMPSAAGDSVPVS
Method: RNA Bind-n-Seq
Molecule type: RNA
Sample: in vitro
Concentration: not given
Setting: RNA with constant flanks, human-mouse chimeric sites, ends assumed
Reference: input RNA pool
Direction: higher = stronger binding
| Oligonucleotide | bound/input enrichment |
| --- | --- |
| GGGAGUUCUACAGUCCGACGAUCGCUCCUCCCCGCUCUGCAGCCUGGGGACACUGGGCUGGGACCAGAAUCCAGCUUUCUUUUAAAACUCUAUAUUUUUUUGUAUCCCGUUUUUUUCUUUUUUUUUUAAAUAGUGUAUUUUUUCAACAGAGGAUUGAGCAUCA | 60.1 ratio |
| GGGAGUUCUACAGUCCGACGAUCUUACCCGAGAACGAGGAUGAGCUGGAGAGCACCAAUAGGCGCUACACCAAGAGGGACUGCAGCACUUUCCUCAGAACUAGUGAGACGGGCAUCGUGGACCAGGUCAUGGUAACUCUCAACCAACAGAGGAUUGAGCAUCA | 0.136 ratio |
| GGGAGUUCUACAGUCCGACGAUCGAACCUGCUCUCUCUGAAGAAGAGGAAGAAGACAAUGAUGAUGUUGAACCCAUUUCUGAAUUUCGAUUUGUGCCCAGUGAUAAGUCAGCAUUGGAGGCGAUGUUCACAGCAAUGUGUGAGCAACAGAGGAUUGAGCAUCA | 0.273 ratio |

Other studies, line by line
| Substance | target | assay | test system | setting | scale | endpoint | value |
| --- | --- | --- | --- | --- | --- | --- | --- |
| PhoQ, residues 284 288 289 292 302 303 SSCLAV | PhoP, residues 12 14 15 18 19 NMSSL (Escherichia coli, UniProt P23836) | Sort-seq, refers to: YFP reporter | E. coli | PhoQ-PhoP variant library, added: 10 µM Mg2+ | reference: high Mg2+ state, higher = stronger signaling | fold induction | 13.2 |
